Experimental data gathered from unrelated publications.
Each line is one published result; not all experiments were run side by side. Numbers after ± are the reported error.
F12: Coagulation factor XII (F12, Homo sapiens, UniProt P00748)
Rac GTPase-activating protein 1: Rac GTPase-activating protein 1 (Homo sapiens, UniProt Q9H0H5)
Rab GDP dissociation inhibitor beta with Rab1A: Rab GDP dissociation inhibitor beta, with Rab1A (Homo sapiens, UniProt P50395)
USP14: Ubiquitin carboxyl-terminal hydrolase 14 (USP14, Homo sapiens, UniProt P54578)
RPS6KB2: Ribosomal protein S6 kinase beta-2 (RPS6KB2, Homo sapiens, UniProt Q9UBS0)
ELANE: Neutrophil elastase (ELANE, Homo sapiens, UniProt P08246)
AVPR1A: Vasopressin V1a receptor (AVPR1A, Homo sapiens, UniProt P37288)
Oprk1: Kappa-type opioid receptor (Oprk1, Rattus norvegicus, UniProt P34975)

SMILES	target	assay	system	setting	inhibition [%]
C[C@H](NC(=O)[C@H](CC(=O)NCC(C)(C)C)NC(=O)CCc1ccccc1)C(=O)NCc1ccccc1Cl	F12	enzyme activity, inhibitor	–	100 µM	38
COCC(=O)N1CCc2cc(-c3csc(NC(=O)c4cc(OC)cc(OC)c4)n3)ccc21	P2X receptor, rabbit	radioligand binding	–	10 µM	7
COc1ccc2c(c1)CCc1sc(N)nc1-2	Rac GTPase-activating protein 1	GAP activity, malachite green phosphate	–	concentration not given, orthogonal retest	72.2
C[C@@H](O)[C@H](NC(=O)c1ccc(OCc2ccccc2)cc1)C(=O)N[C@@H](CCc1ccccc1)C(=O)NCc1ccccc1Cl	F12	enzyme activity, inhibitor	–	100 µM	36
C#CC[C@]1(O)C[C@H](C)N2CCc3cc(OCc4cc(C)cc(C)c4)c(OCc4cc(C)cc(C)c4)cc3[C@@H]2C1	Rab GDP dissociation inhibitor beta with Rab1A	GDI2-Rab1A interaction, inhibitor, NanoLuc complementation	–	6.25 µM	75.1
COC(=O)C(C#N)=Cc1ccc(C)o1	USP14	enzyme activity, inhibitor	–	17 µM	12
c1ccc(CSc2nnc(-c3ccco3)c(-c3ccco3)n2)cc1	Rac GTPase-activating protein 1	enzyme activity, inhibitor, ADP detection	–	20 µM	30.6
C=CC(=O)Nc1cccc(-c2cnc3[nH]cc(C(=O)NC(C)(C)C)c3n2)c1	RPS6KB2	enzyme activity, inhibitor	–	0.1 µM	-8
CN1CCN(Cc2ccc(-c3ccc(CO[C@H]4CCC[C@@H]4NC(=O)c4cc(-c5cnn(C)c5)cnc4N)cc3)cc2)CC1	5'-AMP-activated protein kinase catalytic subunit alpha-1, with beta2, gamma3 (PRKAA1, Homo sapiens, UniProt Q13131)	SelectScreen kinase profiling	–	0.1 µM	16
O=C(/C=C/c1cccc(OS(=O)(=O)Oc2ccc(Br)cc2)c1)NO	Histone deacetylase 7 (HDAC7, Homo sapiens, UniProt Q8WUI4)	enzyme activity, inhibitor, fluorescence	–	10 µM	36
CCn1cc(C(=O)O)c(=O)c2c(N)c(F)c(NC3CCCCC3)cc21	5'-AMP-activated protein kinase catalytic subunit alpha-1, with beta2, gamma1 (PRKAA1, Homo sapiens, UniProt Q13131)	kinase activity	–	0.1 µM, together with: ATP at Km	-4
C[Si](C)(C)C[C@H](CN)CC(=O)O	GABAA receptor, rat	binding, radioligand binding	–	250 µM, together with: [3H]flunitrazepam	5
CC(C)[C@@H](NC(=O)C(=O)O)C(=O)O	Lysine-specific demethylase 4E (KDM4E, Homo sapiens, UniProt B2RXH2)	H3K9me3 demethylation, FDH-coupled	–	concentration not given	14
Cn1c(CNc2ccccc2Cl)nc2ccccc21	Rac GTPase-activating protein 1	enzyme activity, inhibitor, ADP detection	–	20 µM	33.4
Cc1ccc(CNC(=O)[C@H](CCc2ccccc2)NC(=O)[C@H](CC(=O)NCC(C)(C)C)NC(=O)c2ccc(OCc3ccccc3)cc2)cc1	ELANE	enzyme activity, inhibitor	–	100 µM	-6
C=CC(=O)N1Cc2nc(-c3cc(-c4cc(Cl)cnc4Cl)c(F)cc3F)n(-c3ccncn3)c2C1	Phosphatidylinositol 4-phosphate 5-kinase type-1 beta (PIP5K1B, Homo sapiens, UniProt O14986)	cell-free assay, inhibitor	–	1 µM	16
CCC(=O)N(C)c1ccc(Cl)c(Cl)c1	AVPR1A	ligand displacement, radioligand	–	10 µM	< 10
Cc1ccc(CNC(=O)C(CCc2ccccc2)NC(=O)C(NC(=O)c2ccc(OCc3ccc(C(C)(C)C)cc3)cc2)C(C)O)cc1 (centres unmarked)	ELANE	enzyme activity, inhibitor	–	100 µM	-11
c1ccc(-c2cnc3nonc3n2)cc1	USP14	enzyme activity, inhibitor	–	17 µM	8
Cc1ccc(N)cc1C(=O)N[C@H](C)c1cccc2ccccc12	Replicase polyprotein 1ab, papain-like protease (rep, Porcine epidemic diarrhea virus, UniProt P0C6Y4)	enzyme activity, inhibitor, FRET	–	10 µM	65.5
CC(=O)Nc1cc(OC(C)=O)c2nonc2c1OC(C)=O	USP14	enzyme activity, inhibitor	–	17 µM	64
Cc1cc(C)cc(COc2cc3c(cc2OCc2cc(C)cc(C)c2)[C@H]2C[C@@](O)(Cc4cn(Cc5ccc(F)cc5)nn4)C[C@@H](C)N2CC3)c1	Rab GDP dissociation inhibitor beta with Rab1A	GDI2-Rab1A interaction, NanoLuc complementation	–	6.25 µM	85

SMILES	target	assay	system	setting	inhibition [%]
O=C(O)C1Nc2ccc(Cl)cc2C2C=CCC12 (centres unmarked)	Rac GTPase-activating protein 1	enzyme activity, inhibitor, ADP detection	–	20 µM	45
Cc1cccc(O[C@H]2CCC[C@@H](C(C)CNCc3ccncc3)C2)c1 (relative stereo)	RPS6KB2	kinome profiling	–	10 µM	-5
O=C1CC(=O)N(c2ccccc2)N1c1ccccc1	Rac GTPase-activating protein 1	enzyme activity, inhibitor, ADP detection	–	10 µM	26.4
CN(Cc1ccc(/C=C/C(=O)NO)cc1)CC12CC3CC(CC(C3)C1)C2	human 5-HT1A receptor	agonist radioligand binding	–	0.05 µM	2
CCOC(=O)C(Sc1nnc(-c2c[nH]c3ccccc23)n1C)C(=O)OCC	Rac GTPase-activating protein 1	enzyme activity, inhibitor, ADP detection	–	10 µM	87
CC1=NN(c2ccccc2)C(=O)C1=C1C(=O)Nc2ccccc21	USP14	enzyme activity, inhibitor	–	17 µM	92
CC(=O)C12NC(C)(C)CC1(C)C(=O)C1=C2c2c(c3c4n2C(C)(C)CC2=C4C4(CC(C)(C)NC(C)(C4)C2=O)CC3(C)C)C(=O)C(C)(C)N1 (single isomer, unassigned; (-))	Glutamate NMDA receptor; GRIN1/GRIN2B (GRIN1/GRIN2B, Homo sapiens, UniProt Q05586+Q13224)	ion current, antagonist, whole-cell patch clamp	HEK293T	10 µM	2.89 ± 0.02
CC1Cc2ccccc2N1C(=O)CN1CCN(Cc2ccccc2)CC1 (centres unmarked)	5-hydroxytryptamine receptor 7 (HTR7, Homo sapiens, UniProt P34969)	radioligand binding	–	concentration not given, together with: [3H]LSD	67.9
Cc1ccc(C=C2SC(=O)NC2=S)o1	USP14	enzyme activity, inhibitor	–	17 µM	73
C/C=C/C(=O)Nc1ccc2nc(NCCCCCN(C)C)nc(NCCCCCCN(C)C)c2c1	Histone-lysine N-methyltransferase SETD7 (SETD7, Homo sapiens, UniProt Q8WTS6)	enzyme activity, inhibitor, radiometric	–	10 µM	17
COc1ccc(C[C@H](NC(=O)Cc2cccc(Oc3ccccc3)c2)C(=O)N[C@@H](Cc2c[nH]c3ccccc23)C(=O)NCc2ccc(C)cc2)cc1OC	F12	enzyme activity, inhibitor	–	100 µM	34
O=C1CCCC2=C1C1(O)C(=O)c3ccccc3C1(O)O2 (centres unmarked)	USP14	enzyme activity, inhibitor	–	17 µM	79
O=C(Nc1ccc(C(F)F)cc1)[C@H](CC1CCCCC1)Nc1nn2c(=O)ccnc2s1	Serine/threonine-protein phosphatase PP1-alpha catalytic subunit (PPP1CA, Homo sapiens, UniProt P62136)	enzyme activity, inhibitor	–	10 µM	1
C=CCNC(=O)[C@H](CCc1ccccc1)NC(=O)[C@H](CC(=O)NCC(C)(C)C)NC(=O)CCc1ccccc1	F12	enzyme activity, inhibitor	–	100 µM	42
COc1ncc2nc(C)n(Cc3ncc(S(N)(=O)=O)cc3F)c2c1-c1ccccc1	AVPR1A	antagonist, cell-based	–	10 µM	-8.34
COc1nncc(-c2cnnc(SC)n2)n1	USP14	enzyme activity, inhibitor	–	17 µM	38
CC(=O)c1cnc(N)nc1N1CC[C@H]1c1nn2ccc(Cl)c2c(=O)n1-c1ccccc1	Oprk1	enzyme activity, inhibitor	–	10 µM	24
CC(NC1=C(C(=O)/C=C/c2ccccc2)C(=O)CC(C)(C)C1)C(=O)O (centres unmarked)	USP14	enzyme activity, inhibitor	–	17 µM	11
C[Si]1(C[C@H](CN)CC(=O)O)CCCC1	GABAA receptor, rat	binding, radioligand binding	–	70 µM, together with: [3H]flunitrazepam	7
CO[C@@H](C)c1c(NC(=O)Nc2cnc(-n3nccn3)c(C(F)(F)F)c2)cnc2sc(C)nc12	Oprk1	ligand displacement, radioligand	–	10 µM	-14.6
CCOC(=O)c1cnc2c(C)cc(C)cc2c1NCCCN(C)C	Rac GTPase-activating protein 1	enzyme activity, inhibitor, ADP detection	–	20 µM	28.2
CNC(=O)C[C@H](Cc1ccc(C#N)cc1)NC(=O)c1cc(-c2ccc(CN[C@H](C)c3ccc(C)cc3)o2)ccc1Cl	P2Y purinoceptor 2 (P2RY2, Homo sapiens, UniProt P41231)	calcium signal, antagonist	–	10 µM	0

Excerpt of the above:
SMILES	target	assay	system	setting	inhibition [%]
O=C1CCCC2=C1C1(O)C(=O)c3ccccc3C1(O)O2 (centres unmarked)	USP14	enzyme activity, inhibitor	–	17 µM	79
C=CCNC(=O)[C@H](CCc1ccccc1)NC(=O)[C@H](CC(=O)NCC(C)(C)C)NC(=O)CCc1ccccc1	F12	enzyme activity, inhibitor	–	100 µM	42
CC(=O)c1cnc(N)nc1N1CC[C@H]1c1nn2ccc(Cl)c2c(=O)n1-c1ccccc1	Oprk1	enzyme activity, inhibitor	–	10 µM	24
CC(NC1=C(C(=O)/C=C/c2ccccc2)C(=O)CC(C)(C)C1)C(=O)O (centres unmarked)	USP14	enzyme activity, inhibitor	–	17 µM	11
CC1=NN(c2ccccc2)C(=O)C1=C1C(=O)Nc2ccccc21	USP14	enzyme activity, inhibitor	–	17 µM	92
